# Experimental data collected from several papers.
# A part holds a random share of what one study measured. Changes are numbered by the printed parent chain.

# Set 1
# Target: Histone acetyltransferase KAT6A, winged helix 2, GST fusion (KAT6A, Homo sapiens, UniProt Q92794, residues 85-181)
# Method: protein binding microarray
# Molecule type: double-stranded DNA, one strand shown
# Medium: in vitro
# Concentration: not given
# Notes: 8-mer, flanks averaged, mean of 2 arrays, mostly near background
# Reference: not given
# Reading: higher = stronger binding
# Construct (chain): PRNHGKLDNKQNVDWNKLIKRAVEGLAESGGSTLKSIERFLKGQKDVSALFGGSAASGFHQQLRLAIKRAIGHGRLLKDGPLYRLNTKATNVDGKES
Strand,E-score
ACATTTGC,-0.0416
CACGATCC,0.112
ACAGGTCC,-0.0448
ATACTCTG,0.00873
ATAAACAG,0.0457
CCAGTGCG,0.178
GCATCTCC,-0.114
CAAGATGA,-0.0872
AAGGCCGT,0.00995
CCCTGTTA,-0.029
CGTACGGA,-0.13
GCAGACCA,0.0705
GAGCGCTC,-0.0645
CGAACAGA,0.0161
AGCCGCTC,0.0908
GCACTGAC,0.13
CAGATAGC,0.00571
CCGTACTA,-0.0476
AAGTTATA,0.124
ATGCCCGA,-0.012
GCTTGGAA,0.0176
AATACTGC,-0.0101
ATCCAGAT,0.00709
CGCAAGAG,0.23
CCGAGCAC,0.151

# Set 2
# Target: Prothrombin, mature alpha-thrombin (F2, Homo sapiens, UniProt P00734)
# Method: aptamer microarray, sandwich
# Molecule type: DNA with 2'F-ANA
# Medium: in vitro
# Concentration: 200 nM
# Notes: whole 15-mer aptamer, many near background
# Together with: Cy3 exosite-II aptamer, 400 nM
# Reading: higher = stronger binding
# Strand: GGTTGGTGTGGTTGG
Modification,mean fluorescence intensity [a.u.]
2'F-ANA at 1 2 4 7 9 10 11 14,53.4
2'F-ANA at 2 3 4 5 6 7 8 10 12 13 15,59.1
2'F-ANA at 2 6 7 8 9 12,693
2'F-ANA at 2 5 11 12 13 15,96.6
2'F-ANA at 1 3 4 8 10 11 12 14,53.1
2'F-ANA at 3 5 6 8 9 11 15,98.5
2'F-ANA at 1 2 3 4 5 8 10 13 15,49.6
2'F-ANA at 3 4 7 9 10 11,337
2'F-ANA at 2 3 4 5 7 8 9 10,54.1
2'F-ANA at 2 3 7 10 11 13,365
2'F-ANA at 1 3 9 10 12 13 15,109
2'F-ANA at 3 6 8 12,1460
2'F-ANA at 6 8 9 11 13 15,328
2'F-ANA at 3 5 6 8 9 13 14,57.9
2'F-ANA at 1 3 5 6 7 8 13 15,54.5
2'F-ANA at 2 3 4 5 9 10 11 13 14,54.4
2'F-ANA at 5 6 7 11 12 14,55.1
2'F-ANA at 1 3 5 6 8 11 12 13 14 15,49.1
2'F-ANA at 2 4 7 9 11 13 14,87.5
2'F-ANA at 3 5 6 9 12 14 15,58.5
2'F-ANA at 2 4 6 7,340
2'F-ANA at 1 4 5 6 7 8 9 10 12 15,50.4
2'F-ANA at 1 4 5 7 9 12 13 14 15,61.5

# Set 3
# Target: Sal-like protein 4, full length isoform A (SALL4, Homo sapiens, UniProt Q9UJQ4, residues 1-1053)
# Sequence of UniProt Q9UJQ4 (whole entry, looked up): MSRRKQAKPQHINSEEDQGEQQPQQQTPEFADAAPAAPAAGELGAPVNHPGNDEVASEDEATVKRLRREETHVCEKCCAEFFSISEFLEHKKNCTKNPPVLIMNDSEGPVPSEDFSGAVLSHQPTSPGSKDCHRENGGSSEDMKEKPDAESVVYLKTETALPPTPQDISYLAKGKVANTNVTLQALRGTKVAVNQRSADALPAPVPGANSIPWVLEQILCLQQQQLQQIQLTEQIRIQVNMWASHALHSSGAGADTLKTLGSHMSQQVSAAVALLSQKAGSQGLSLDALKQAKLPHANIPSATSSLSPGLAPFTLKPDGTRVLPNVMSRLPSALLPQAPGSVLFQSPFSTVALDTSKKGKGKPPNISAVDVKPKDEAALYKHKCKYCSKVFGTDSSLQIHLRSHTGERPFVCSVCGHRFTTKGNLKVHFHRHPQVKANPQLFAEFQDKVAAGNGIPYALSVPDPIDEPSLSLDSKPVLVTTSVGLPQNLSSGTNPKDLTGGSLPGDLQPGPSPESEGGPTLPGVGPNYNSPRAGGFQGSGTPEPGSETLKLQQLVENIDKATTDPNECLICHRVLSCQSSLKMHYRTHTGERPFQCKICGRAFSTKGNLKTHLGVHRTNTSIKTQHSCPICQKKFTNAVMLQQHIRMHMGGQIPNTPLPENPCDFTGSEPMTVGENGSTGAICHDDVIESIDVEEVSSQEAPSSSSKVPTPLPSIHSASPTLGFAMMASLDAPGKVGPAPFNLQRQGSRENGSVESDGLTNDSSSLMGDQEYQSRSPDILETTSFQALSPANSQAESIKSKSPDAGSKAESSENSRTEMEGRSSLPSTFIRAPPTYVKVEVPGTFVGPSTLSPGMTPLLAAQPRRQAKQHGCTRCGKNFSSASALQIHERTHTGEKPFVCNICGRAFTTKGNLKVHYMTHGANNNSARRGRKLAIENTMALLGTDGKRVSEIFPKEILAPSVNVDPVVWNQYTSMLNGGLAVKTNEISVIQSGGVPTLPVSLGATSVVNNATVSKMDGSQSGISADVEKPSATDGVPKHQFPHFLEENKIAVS
# Method: universal PBM
# Molecule type: double-stranded DNA, one strand shown
# Medium: in vitro
# Concentration: 600 nM
# Notes: 8-mer, flanks averaged, mean of replicates
# Reading: higher = stronger binding
Strand,E-score
ATCCGGCC,-0.321
CAAGTATG,0.202
CTACCAGA,0.00384
CCCCGGGG,-0.426
AGGCGAAT,0.102
AGGGAATC,-0.223
AAAAATCC,0.195
CCGATTTC,-0.0822
CGTTGGAC,-0.203
CAAGGCCA,-0.0584
AGGCCTCA,-0.207
CCTCCATC,-0.199
ATGGCTAG,-0.0169
GACAATCA,0.0647
GAAACAAC,0.00446
ATACCCCC,-0.0519

# Set 4
# Target: RNA binding protein fox-1 homolog 2, RRM domain, GST-SBP tag (RBFOX2, Homo sapiens, UniProt O43251-10, residues 100-194)
# Method: RNA Bind-n-Seq
# Molecule type: RNA
# Medium: in vitro
# Concentration: 365 nM
# Notes: natural RNA segment, single round, ends assumed
# Reference: no-protein control
# Reading: higher = stronger binding
# Constant ends, left off below: GGGAGUUCUACAGUCCGACGAUC … UGGAAUUCUCGGGUGCCAA
# Construct (chain): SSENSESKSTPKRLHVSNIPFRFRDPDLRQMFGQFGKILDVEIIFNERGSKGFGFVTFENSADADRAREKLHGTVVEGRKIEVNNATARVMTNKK
Strand,RBNS enrichment (R)
CAUACUCAUGUUUUACAUCUUUUCUUUCUGCCGCUCGGCUCCGGCCAUUUUGUUUUAUACAAAAAUGGGAAAAAAAAAAAAGAAAUUAUAUAAAGUUCCUAGAGUCGGUG,0.476
UACAAUCAAGUAACUGAAAUUCUUGGGAAGACACUUUGCUCCUCAUCUUUCUCCCCGAAACAAUGUUGUUUUGUUUUGUUUUUUUUCCUUAAUUUGCACGAAAACAAAAA,0.863
CAUGCUCCCUUUCUCGGCACCCCCUUGUUGGAGAUGGAGGCAGCAGACGUGCAGUGCCAUAAGGUGCCCCAGUCCUUCUGGAGGCCUGGGCUGCUACUGUUGGCCACCCU,0.297
UUACAGGUGAUCGCUGGUCUCCUGCCUCCACCUCCUGAGUGCUGGGGUUACAGGUGAUCGCUGGUCUCCUGCCUCCACCCCCUGAGUGCUGGGGUUACAGGUGUGAUCAC,0.201
AUGGGAGCUUAACUUUAUAAGGAAAUGUAUUUUGACACUGGUAUCUUAUUAAAGUAUUCUGAUCCUACCACUGCUGGUGGCUCUUAUUUCCUGUGGAUUUAUCAUGGGCU,0.292
AACACUUGGGAUUUUUCUCCUAUGUCCCGAGGUCUGGUCUUGAUUUCUUUUUUGGGUUUCUUUCUAGGAAAAUGAGAAGUGCAUGCAAGGGGCAGGAGAUGACCCUCCCC,23.3
UUCAACUCCUGUUAAUACCCAUAAUCAGUAACCUAUCAAGAAAAGCCCUUAUUUGGAAAGUGUGAAAUUUGUAUUUGGAAAAGCUGCCUGGAGAGAAGAACUGUGUCCUU,0.92
AUUUCCUUAUCUCUCUGAUUAUCUUCUGGGACCCACGUCCUUUCCUCCACAUACCUACACCUUGGGUGCAUCACUCCAUUCAUGGCCUCCUGUUACCAACUGCGCAGACA,0.501

# Set 5
# Target: CREB3L3, bZIP domain (human)
# Method: DHFR protein complementation
# Medium: yeast
# Notes: single substitutions, most at no-binding floor
# Reference: wild-type JUN-FOS pair
# Reading: higher = stronger binding
# Parent: JUN, bZIP domain (human); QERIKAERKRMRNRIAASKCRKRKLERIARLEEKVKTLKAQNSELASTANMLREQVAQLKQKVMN; partner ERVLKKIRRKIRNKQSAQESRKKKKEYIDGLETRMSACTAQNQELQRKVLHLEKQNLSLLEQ
Change,binding fitness [natural log]
S43V,-1.45
V35A,-1.47
A49S,-1.5
L38V,-1.49
T37A,-1.28
L45C,-1.52
T37H,-1.6
A29M,-1.41
L59C,-1.34
L45Q,-1.5
K36C,-1.01
L38D,-1.48
Q41T,-1.38
M51E,-1.26
V56M,-1.43
A29W,-1.37

# Repeated from above (set 3):
Strand,E-score
CGTTGGAC,-0.203
AGGCGAAT,0.102
AGGCCTCA,-0.207
AAAAATCC,0.195
AGGGAATC,-0.223
CCTCCATC,-0.199
ATGGCTAG,-0.0169
CAAGGCCA,-0.0584
ATCCGGCC,-0.321
GACAATCA,0.0647
CCGATTTC,-0.0822
CTACCAGA,0.00384
